Measured values collected from several papers.
Every numbered part comes from another study and shows a few of its results, in no order. Substitutions count along the parent as printed.

Study 1
Target: Sal-like protein 4, full length isoform A (SALL4, Homo sapiens, UniProt Q9UJQ4, residues 1-1053)
Chain of UniProt Q9UJQ4 (whole entry, looked up): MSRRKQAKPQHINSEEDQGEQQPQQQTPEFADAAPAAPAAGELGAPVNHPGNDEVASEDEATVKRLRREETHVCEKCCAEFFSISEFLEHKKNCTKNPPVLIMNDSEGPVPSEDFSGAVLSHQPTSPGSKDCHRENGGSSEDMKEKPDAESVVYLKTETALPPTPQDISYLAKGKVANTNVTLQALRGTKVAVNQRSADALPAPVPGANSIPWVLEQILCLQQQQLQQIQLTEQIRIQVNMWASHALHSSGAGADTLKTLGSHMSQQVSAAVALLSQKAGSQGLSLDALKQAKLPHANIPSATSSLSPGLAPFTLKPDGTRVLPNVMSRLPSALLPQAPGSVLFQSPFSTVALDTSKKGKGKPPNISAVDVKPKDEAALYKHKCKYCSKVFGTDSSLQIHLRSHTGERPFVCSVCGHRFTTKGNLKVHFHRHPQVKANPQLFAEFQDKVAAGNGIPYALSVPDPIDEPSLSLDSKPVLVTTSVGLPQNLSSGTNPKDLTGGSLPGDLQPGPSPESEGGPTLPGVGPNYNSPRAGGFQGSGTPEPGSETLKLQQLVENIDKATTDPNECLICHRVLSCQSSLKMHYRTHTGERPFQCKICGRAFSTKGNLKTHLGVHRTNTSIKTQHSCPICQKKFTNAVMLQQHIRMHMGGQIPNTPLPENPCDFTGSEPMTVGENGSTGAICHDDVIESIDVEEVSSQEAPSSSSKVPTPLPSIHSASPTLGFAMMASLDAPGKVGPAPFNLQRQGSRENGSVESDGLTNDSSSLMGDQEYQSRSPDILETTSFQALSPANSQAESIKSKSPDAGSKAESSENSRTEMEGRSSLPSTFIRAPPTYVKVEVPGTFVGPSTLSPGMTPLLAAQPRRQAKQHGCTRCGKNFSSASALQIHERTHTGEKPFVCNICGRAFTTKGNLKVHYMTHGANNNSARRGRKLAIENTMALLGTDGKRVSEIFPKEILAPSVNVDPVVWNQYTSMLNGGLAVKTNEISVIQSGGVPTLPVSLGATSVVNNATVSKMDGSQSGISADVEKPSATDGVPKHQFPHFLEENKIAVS
Technique: universal PBM
Molecule type: double-stranded DNA, one strand shown
Sample: in vitro
Concentration: 600 nM
Notes: 8-mer, flanks averaged, mean of replicates
Direction: higher = stronger binding
Oligonucleotide	E-score
GGCGTTTA	0.0789
GATTGTAA	0.246
CAGCACAG	-0.124
TGTATCAA	0.245
ACAGGACC	-0.229
CGATCTAA	0.0294
CACAGATC	-0.0525
GAGACCTC	-0.196
GCTATCCA	-0.0353
CAACCCGG	-0.375
GCTCCCCA	-0.243
CCCTTGAA	-0.0423
ACGTCAGT	-0.146
CCAATCCA	-0.256
GGATAGCC	-0.209
CCGAGTGC	-0.219

Study 2
Target: Centromere-binding protein 1, full length, His-tagged (CBF1, Saccharomyces cerevisiae, UniProt P17106, residues 1-351)
Chain of UniProt P17106 (whole entry, looked up): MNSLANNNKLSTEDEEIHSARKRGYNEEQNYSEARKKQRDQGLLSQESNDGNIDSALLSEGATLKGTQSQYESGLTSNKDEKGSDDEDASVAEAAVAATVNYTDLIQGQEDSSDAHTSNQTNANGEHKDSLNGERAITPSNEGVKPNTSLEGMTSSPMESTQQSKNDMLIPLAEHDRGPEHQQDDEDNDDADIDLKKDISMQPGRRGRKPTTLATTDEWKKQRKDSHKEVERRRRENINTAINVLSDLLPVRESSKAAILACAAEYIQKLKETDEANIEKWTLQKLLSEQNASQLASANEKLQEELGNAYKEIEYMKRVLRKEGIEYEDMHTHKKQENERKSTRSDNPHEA
Technique: competition protein-binding microarray
Molecule type: double-stranded DNA, one strand shown
Sample: in vitro
Concentration: 2 µM
Notes: whole 60-bp probe, lowest competitor level
Together with: Pho4 competitor, 0.05 µM
Direction: higher = stronger binding
Constant ends, left off below: … GTCTTGATTCGCTTGACGCTGCTG
Oligonucleotide	fluorescence intensity [a.u.]
TTCTAGGTATTGATGCAGGTGAGGAAAAGGAAAAAG	91
TTGCTGGATTCTTATCAGGTGTGGCAGTATGTCCCC	92.6
TTGTTTCTAGACCACCACGTGTGGATTGCAAAACAA	765
GAGCAGCGCCCATACAATGTGCGGGCAAGATTTGCC	55.9
CTTAAAATGTGTACGATGTGTACACATCAACCTACT	101
CAACATCAGCGCTGTCATGCGGTCTTTGAAATTCCT	87.2
AAATTACTAAGTTTTCACGTGAGGTACCCCGTATGA	940
CGGGGTTAAGTTTGCGCGGTGGGTGGCTTGCAGCAG	56.8
CTAACGAAGGTTTGACACGTGTTTTACAAGCCAAGT	1590
GATATTGTACGTATTCACGTGTGAATTGCTAAAGAG	884
GTATTTTTTGTTTTTCACGTGATGGAATCGGCTTCG	3240
CGGGGTTAAGTTTGTCACCGTACTTGCTTGCAGCAG	63.9
GTCTTGTCTCATTGGTCCGTGGGTGTCCCCACTTCA	89.1
CATACCCAACCTTGTGCAGTGGGTGAAGATATTTGT	73.2
ACAACTCCCAGCAGCCACGAGGAGCCCTAGGGCTTG	61
AAAGCGGTAATTTGAGTAGTGGGTGCAGATATCTAT	76.4
CCGCTGTTTTATTAGCACGTGACGGATTGAAACGAC	10600
CTTTCCCGATCTTGCCTCGTGGGTGTAGCACATTTG	89.9
CGTCCTAGTGATTGTTTAGTGGGTGCCATGAGGAAG	99.7
CATACCCAACCTTGTCACACAACTTAAGATATTTGT	91.2

Study 3
Target: RNA binding protein fox-1 homolog 2, RRM domain, GST-SBP tag (RBFOX2, Homo sapiens, UniProt O43251-10, residues 100-194)
Technique: RNA Bind-n-Seq
Molecule type: RNA
Sample: in vitro
Concentration: 365 nM
Notes: natural RNA segment, single round, ends assumed
Reference: no-protein control
Direction: higher = stronger binding
Constant ends, left off below: GGGAGUUCUACAGUCCGACGAUC … UGGAAUUCUCGGGUGCCAA
Residues (chain): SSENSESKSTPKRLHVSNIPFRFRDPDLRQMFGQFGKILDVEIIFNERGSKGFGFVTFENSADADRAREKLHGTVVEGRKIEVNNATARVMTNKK
Oligonucleotide	RBNS enrichment (R)
AAUCUGAGACUUGUAGAGAUGAUUUAAUGAGAAGCACAAUUUUUAUUGUGACCAGUCACGUUCUAUCACCAGGCACUGUCUUGUCUUUGCCCUUGCCUUUUCUGUAACUC	0.259
UCGGCCCAGAGCUUCCCUUCCGGCUGGCUCUGAACCGUGCGUGGUGCCUACAGCCUGCAGUCUGGAGACAAGCUCUUCCGGAGUGCUCUGGGAGCCAGGCCAGGGUGUGA	0.23
AACACUCUUCCAAGGAAAAGCAGAAGUAAUAAUUGGAGGUAAAGUUUCCUUAGAGAAAAUAAUUUUAUUCUGCUUUGUCCAAUUAAAUUAUUCCAAUGGCGGAUGGUAAU	0.898
AUAACAGUAUUACCCUUUCACUGUUCUCACAGGACAUGUACCUAAUUAUGGUACUUAUUUAUGUAGUCACUGUAUUUCUGGAUUUUUAAAUUAAUAAAAAAGUUAAUUUU	0.66
AGAGCUCUAUGGUGUUCCUGAAGACACAAAGGAGCAAGAGACCAGCCAUGUGGAGAACAAUGGUAUUAAUCCAUACUGGGGGGAGACUUUCUAUUUCCGGCUCCAGGUAC	0.343
GAAAGUGAAAAGUUAAGACCGUUCACAAGAAUUACACCCACACGCUGCCUGUCACAGCCUGUGAGGGAACGCAGAACACCUGGCUGGGUCCCACGGGUGACCCUCUCAUU	0.214
CUGGGCUGGGUCCGGUGGCUCACGCCUGUAAUCCCAGCAAUUUGGGAGUCCGAGGCGGGCGGAUCACUCGAGGUCAGGAGUUCCAGACCAGCCUGACCAAAAUGGUGAAA	0.516
UACACUAGUAUUUCUUAAAGCAGAGGUGAGUUGCGGAUAAGGUGGAUAAUAUGUGACUUUAGUCUAGUCUUCUCUGAGACUUUGAGACCCUUGGCUUGGCUGGUAUAAGU	0.776
AGGCCAAGUGAAAUCUAUGCCCUACGGGAGCCAUUCCCAAUCCUGAGUUUCUCAGACUUGGCAAUGGGGGUUCUGGCGGGGGUUGGAGUACAAAUCCUGCUCUGGUCUCU	0.191
CUCUUCUGCCAUGUAACUGGAGGAUGUGCUAUGAGUUUGCAAACAGCUGGACUGUCAGGCUGCUUUUUUUCCAGAUGUUCCUCCUCUGCCUCCCCUUCCCCUCCUCUCCC	2.33
CUUCCUCAUGCUCAUCUUCAUGACCUACAAUGGGUACCUAUGCAUUGCAGUAGCAGCAGGGGCUGGGACGGGAUACUUUCUCUUCAGCUGGAAGAAGGCAGUGGUGGUGG	0.393
GAUCCACAUGGCCUGUCCCCGUGAAGGCCAAAAAGCAUUUUCUCUCCAACUCCUUCUGGGAAGGUUGAGCUGGCCAGAGCCAAGAAACACUUCCAGGAACAUUAACAUGA	0.56

Study 4
Target: CCND1, cyclin fold, Cln2 fusion (human)
Technique: yeast growth competition, sequencing
Sample: yeast
Notes: strong parent motif
Reference: not given
Direction: higher = stronger binding
Starting sequence: INSM1 docking peptide (human); PKAIRKLHFEDEV
Variant	normalised enrichment score
PKAIRKNHFEDEV [L7N]	0.0791
PKAIRKLHFMDEV [E10M]	2.84
PSAIRKLHFEDEV [K2S]	5.3
PKAIRKLHFEHEV [D11H]	2.9
PKAIRKLHFEDAV [E12A]	4.23
PKAIRMLHFEDEV [K6M]	3.61
PKAIRKLHFEMEV [D11M]	3.11
PKAIRKYHFEDEV [L7Y]	0.0995
PKAIRKLHFEVEV [D11V]	3.01
PKAIRKLHFFDEV [E10F]	2.71
PFAIRKLHFEDEV [K2F]	3.25
PKAIRKLLFEDEV [H8L]	5.92
PKAIRKLHFEDKV [E12K]	3.31

Study 5
Target: ABI1, truncated, D143A, DHFR fusion (Arabidopsis thaliana)
Technique: DHFR PCA, deep sequencing
Sample: yeast
Notes: methotrexate growth selection, single substitutions
Together with: (+)-ABA 0.11 µM
Reference: wild-type fitted maximum
Direction: higher = stronger binding
Starting sequence: PYL1, truncated, DHFR fusion (Arabidopsis thaliana); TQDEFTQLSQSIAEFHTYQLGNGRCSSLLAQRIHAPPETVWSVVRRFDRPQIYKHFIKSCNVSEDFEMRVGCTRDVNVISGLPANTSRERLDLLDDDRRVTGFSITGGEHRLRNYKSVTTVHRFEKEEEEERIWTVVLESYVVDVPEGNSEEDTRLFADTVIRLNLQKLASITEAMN; partner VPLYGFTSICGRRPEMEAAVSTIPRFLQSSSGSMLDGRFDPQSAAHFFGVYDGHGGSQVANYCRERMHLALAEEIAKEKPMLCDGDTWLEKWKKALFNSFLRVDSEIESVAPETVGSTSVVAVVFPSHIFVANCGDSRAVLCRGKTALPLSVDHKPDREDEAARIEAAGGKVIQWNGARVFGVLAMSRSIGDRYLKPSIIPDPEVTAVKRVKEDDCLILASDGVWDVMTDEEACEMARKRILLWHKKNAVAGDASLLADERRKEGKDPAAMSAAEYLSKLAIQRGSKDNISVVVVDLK
Variant	relative binding score [%]
D92H	-0.765
N149G	63.5
F15T	-2.28
L169I	-2.75
H122N	10.1
E131A	37.4
F15Y	32
D95I	-8.55
S87Q	59.3
H122E	-1.62
M68L	61.8
E109Q	8.88
G71Q	1.1
E67G	5.8
A35Q	0.125
Q31L	-0.911
G102M	-2.61
E127M	41.9

Study 6
Target: Histone acetyltransferase KAT6A, winged helix 2, GST fusion (KAT6A, Homo sapiens, UniProt Q92794, residues 85-181)
Technique: protein binding microarray
Molecule type: double-stranded DNA, one strand shown
Sample: in vitro
Concentration: not given
Notes: 8-mer, flanks averaged, mean of 2 arrays, mostly near background
Reference: not given
Direction: higher = stronger binding
Residues (chain): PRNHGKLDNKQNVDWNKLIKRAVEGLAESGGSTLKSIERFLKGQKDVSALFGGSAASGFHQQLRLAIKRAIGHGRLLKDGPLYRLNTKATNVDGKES
Oligonucleotide	E-score
AGTTCGCG	0.152
AAAGAGTC	-0.157
ACATCTGC	-0.133
GCTAGTCA	-0.146
ATGTTGCC	-0.126
AGTCGATC	-0.0025
GTGGAATA	-0.0857
CAGCATTC	-0.0519
CGAGTCTC	-0.152
TACCAGCA	-0.0764
GCGCACCA	0.147
AACCGGTG	-0.0812
AGCTCGCA	-0.0411
AGACGACC	-0.225
CCGTGAGA	-0.0433
GATAAACA	0.00509
CGAGGCAG	0.114
CTGAGCTC	0.102
AAAGTGCA	-0.0924
CTGGTGTA	-0.243
ATTGGACG	-0.111
GACAACAA	0.0267

Further values, each from its own experiment
Substance	target	assay	system	setting	scale	measurement	value
PhoQ, residues 284 288 289 292 302 303 SSCCRF	PhoP, residues 12 14 15 18 19 VGHWL (Escherichia coli, UniProt P23836)	Sort-seq, measured: YFP reporter	E. coli	PhoQ-PhoP variant library, together with: 10 µM Mg2+	reference: high Mg2+ state, higher = stronger signaling	fold induction	3.6

Repeated from above (study 5):
Variant	relative binding score [%]
F15T	-2.28
L169I	-2.75
H122N	10.1
E131A	37.4
F15Y	32
D95I	-8.55
S87Q	59.3
H122E	-1.62
M68L	61.8
